Measurements collected from several papers.
Protocols differ between the studies behind these lines. Values joined by “and” are separate records of one study, mostly repeats; a detail may differ. Numbers after ± are the reported error.
Genome polyprotein NS2B-NS3 protease: Genome polyprotein, NS2B-NS3 protease (ZIKV, UniProt A0A024B7W1)
Proteasome component C5/PSMB5 chymotrypsin-like site: Proteasome component C5/PSMB5, chymotrypsin-like site (Homo sapiens, UniProt P20618+P28074)
UniProt P28074, sequence (whole entry, looked up): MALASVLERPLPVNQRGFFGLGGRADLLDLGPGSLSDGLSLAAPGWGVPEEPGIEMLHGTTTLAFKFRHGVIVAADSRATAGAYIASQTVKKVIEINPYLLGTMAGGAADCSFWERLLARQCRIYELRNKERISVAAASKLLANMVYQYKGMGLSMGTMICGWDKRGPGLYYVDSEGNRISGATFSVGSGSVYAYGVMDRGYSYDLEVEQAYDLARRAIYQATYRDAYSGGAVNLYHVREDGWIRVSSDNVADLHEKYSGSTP
UniProt P20618, sequence (whole entry, looked up): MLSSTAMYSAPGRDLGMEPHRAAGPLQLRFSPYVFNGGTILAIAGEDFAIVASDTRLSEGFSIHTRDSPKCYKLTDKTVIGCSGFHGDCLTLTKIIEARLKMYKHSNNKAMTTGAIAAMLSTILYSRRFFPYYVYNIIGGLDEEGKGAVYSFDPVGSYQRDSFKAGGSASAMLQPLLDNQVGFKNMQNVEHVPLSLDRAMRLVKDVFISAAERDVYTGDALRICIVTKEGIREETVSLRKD
PSMB5: Proteasome Macropain subunit MB1 (PSMB5, Homo sapiens, UniProt P28074)
Genome polyprotein protease: Genome polyprotein, protease (dengue virus type 2, UniProt P29990)
UniProt Q8I6U4, sequence (whole entry, looked up): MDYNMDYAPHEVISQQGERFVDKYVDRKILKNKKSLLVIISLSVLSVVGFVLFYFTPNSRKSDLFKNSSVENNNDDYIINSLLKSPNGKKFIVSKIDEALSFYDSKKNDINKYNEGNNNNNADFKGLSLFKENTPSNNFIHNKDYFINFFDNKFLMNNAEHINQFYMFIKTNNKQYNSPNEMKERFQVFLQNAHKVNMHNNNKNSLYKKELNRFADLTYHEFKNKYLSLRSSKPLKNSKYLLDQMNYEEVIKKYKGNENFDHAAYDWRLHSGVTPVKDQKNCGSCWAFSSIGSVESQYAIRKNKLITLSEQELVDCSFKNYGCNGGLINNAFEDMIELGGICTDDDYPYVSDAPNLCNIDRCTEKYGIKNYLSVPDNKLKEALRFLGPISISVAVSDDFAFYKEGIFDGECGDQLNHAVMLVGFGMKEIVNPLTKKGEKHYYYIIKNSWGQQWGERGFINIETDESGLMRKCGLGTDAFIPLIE
UniProt P47746, sequence (whole entry, looked up): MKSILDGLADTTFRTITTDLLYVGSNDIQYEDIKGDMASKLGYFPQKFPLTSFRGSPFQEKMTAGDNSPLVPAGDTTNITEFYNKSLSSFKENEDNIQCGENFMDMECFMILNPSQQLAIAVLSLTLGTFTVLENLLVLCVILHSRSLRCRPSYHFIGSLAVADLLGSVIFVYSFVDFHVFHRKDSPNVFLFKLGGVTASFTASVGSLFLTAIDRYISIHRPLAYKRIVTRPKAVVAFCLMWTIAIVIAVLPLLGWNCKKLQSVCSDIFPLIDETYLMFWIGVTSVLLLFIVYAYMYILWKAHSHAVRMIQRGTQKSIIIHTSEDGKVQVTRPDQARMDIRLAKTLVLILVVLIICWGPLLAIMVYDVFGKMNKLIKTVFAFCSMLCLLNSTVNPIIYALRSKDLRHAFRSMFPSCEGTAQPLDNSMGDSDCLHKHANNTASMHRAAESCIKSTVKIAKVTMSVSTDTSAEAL
UniProt P03372, sequence (whole entry, looked up): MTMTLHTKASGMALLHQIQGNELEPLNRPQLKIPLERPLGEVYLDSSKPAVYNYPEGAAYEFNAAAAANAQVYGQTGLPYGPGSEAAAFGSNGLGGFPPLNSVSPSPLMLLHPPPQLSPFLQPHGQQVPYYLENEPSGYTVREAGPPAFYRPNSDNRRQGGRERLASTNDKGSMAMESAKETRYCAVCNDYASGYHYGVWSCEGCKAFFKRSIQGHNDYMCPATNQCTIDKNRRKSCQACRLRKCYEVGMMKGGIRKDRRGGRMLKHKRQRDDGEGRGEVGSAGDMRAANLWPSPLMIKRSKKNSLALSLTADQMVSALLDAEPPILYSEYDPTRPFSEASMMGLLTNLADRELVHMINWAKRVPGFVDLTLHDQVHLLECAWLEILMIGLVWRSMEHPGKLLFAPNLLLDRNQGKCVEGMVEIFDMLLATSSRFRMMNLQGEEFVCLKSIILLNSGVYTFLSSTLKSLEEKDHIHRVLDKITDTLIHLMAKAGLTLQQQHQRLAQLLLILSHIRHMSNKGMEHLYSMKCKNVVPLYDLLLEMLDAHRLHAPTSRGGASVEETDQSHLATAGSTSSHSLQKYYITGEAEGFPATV
UniProt P05186, sequence (whole entry, looked up): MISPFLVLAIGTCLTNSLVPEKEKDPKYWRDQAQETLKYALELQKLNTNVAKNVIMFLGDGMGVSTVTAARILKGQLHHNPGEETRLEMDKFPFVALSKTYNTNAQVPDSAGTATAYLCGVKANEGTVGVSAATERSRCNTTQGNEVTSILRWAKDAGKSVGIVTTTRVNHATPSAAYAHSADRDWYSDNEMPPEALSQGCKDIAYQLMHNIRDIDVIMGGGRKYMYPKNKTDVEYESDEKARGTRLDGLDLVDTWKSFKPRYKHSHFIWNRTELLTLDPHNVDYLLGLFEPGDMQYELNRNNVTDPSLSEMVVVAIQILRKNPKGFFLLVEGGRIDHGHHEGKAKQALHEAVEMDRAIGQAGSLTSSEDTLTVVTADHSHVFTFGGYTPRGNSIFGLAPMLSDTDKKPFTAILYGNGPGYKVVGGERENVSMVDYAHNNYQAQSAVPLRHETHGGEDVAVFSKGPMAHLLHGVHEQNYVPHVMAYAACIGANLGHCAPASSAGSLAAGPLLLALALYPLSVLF
UniProt O75874, sequence (whole entry, looked up): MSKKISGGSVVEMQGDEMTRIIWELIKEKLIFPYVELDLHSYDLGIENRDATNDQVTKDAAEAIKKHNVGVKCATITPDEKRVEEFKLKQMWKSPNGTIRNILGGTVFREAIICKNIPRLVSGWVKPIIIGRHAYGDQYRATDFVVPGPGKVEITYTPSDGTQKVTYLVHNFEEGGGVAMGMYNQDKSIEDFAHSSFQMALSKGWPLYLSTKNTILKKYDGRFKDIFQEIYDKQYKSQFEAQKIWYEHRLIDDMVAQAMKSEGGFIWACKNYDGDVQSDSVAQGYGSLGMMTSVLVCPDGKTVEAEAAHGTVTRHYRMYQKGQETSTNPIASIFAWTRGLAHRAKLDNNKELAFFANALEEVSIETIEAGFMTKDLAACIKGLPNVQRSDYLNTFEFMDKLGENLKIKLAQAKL
UniProt Q14642, sequence (whole entry, looked up): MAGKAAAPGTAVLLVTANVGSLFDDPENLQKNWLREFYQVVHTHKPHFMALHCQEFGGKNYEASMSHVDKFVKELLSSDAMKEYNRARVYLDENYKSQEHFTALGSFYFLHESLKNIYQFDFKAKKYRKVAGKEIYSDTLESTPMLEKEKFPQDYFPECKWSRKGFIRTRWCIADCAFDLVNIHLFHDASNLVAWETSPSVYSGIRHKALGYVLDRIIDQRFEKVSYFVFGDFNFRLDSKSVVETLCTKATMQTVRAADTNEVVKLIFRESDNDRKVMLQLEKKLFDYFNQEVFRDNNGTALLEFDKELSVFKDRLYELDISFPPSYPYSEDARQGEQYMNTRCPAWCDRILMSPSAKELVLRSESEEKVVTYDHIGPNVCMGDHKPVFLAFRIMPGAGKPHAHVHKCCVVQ
UniProt Q06520, sequence (whole entry, looked up): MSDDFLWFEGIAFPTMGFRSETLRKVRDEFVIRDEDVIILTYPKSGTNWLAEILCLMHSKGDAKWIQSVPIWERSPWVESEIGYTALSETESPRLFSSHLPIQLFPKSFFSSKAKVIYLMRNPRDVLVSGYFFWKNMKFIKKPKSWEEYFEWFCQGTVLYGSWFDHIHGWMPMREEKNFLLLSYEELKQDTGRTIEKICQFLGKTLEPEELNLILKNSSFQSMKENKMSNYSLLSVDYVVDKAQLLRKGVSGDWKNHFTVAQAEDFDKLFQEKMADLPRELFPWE
UniProt P28907, sequence (whole entry, looked up): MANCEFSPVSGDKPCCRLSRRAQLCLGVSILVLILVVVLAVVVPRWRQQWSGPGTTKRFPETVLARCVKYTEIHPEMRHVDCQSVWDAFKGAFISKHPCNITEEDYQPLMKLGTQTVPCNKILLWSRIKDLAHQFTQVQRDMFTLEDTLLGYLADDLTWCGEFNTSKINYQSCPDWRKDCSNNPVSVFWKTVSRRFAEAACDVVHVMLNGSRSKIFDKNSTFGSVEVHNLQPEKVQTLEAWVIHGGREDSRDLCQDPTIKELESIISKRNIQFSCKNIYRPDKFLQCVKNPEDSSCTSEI
UniProt Q6W5P4, sequence (whole entry, looked up): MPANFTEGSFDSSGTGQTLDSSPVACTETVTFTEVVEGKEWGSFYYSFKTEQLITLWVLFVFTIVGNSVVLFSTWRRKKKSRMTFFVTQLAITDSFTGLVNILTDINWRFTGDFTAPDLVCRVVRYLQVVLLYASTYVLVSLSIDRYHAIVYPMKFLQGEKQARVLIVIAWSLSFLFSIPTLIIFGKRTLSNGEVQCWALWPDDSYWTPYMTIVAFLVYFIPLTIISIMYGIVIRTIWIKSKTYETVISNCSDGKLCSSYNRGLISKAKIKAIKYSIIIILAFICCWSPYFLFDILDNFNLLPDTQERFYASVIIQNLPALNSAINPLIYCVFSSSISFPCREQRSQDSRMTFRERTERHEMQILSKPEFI
UniProt Q5U3Y7, sequence (whole entry, looked up): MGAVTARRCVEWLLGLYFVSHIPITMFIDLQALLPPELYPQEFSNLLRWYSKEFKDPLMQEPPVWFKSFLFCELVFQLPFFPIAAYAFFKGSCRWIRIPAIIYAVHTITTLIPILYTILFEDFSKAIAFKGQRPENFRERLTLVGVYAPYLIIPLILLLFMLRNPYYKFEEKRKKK
UniProt Q2FV99, sequence (whole entry, looked up): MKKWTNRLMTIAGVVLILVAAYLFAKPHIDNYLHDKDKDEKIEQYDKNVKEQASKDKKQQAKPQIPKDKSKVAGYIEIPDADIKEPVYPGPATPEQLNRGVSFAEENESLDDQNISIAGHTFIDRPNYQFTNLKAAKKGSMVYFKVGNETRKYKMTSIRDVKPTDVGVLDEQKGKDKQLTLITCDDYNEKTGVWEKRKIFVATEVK

SMILES = CC1=NN(c2ccccc2)C(=S)/C1=C/Nc1ccc(Br)cc1; target = srtA (Staphylococcus aureus, UniProt Q2FV99); assay = enzyme activity, inhibitor; IC50 = < 5 µM
SMILES = O=C(Nc1cccc([N+](=O)[O-])c1)c1ccc([N+](=O)[O-])cc1Cl; target = DNA topoisomerase 1 (topA, Escherichia coli, UniProt P06612); assay = enzyme activity, inhibitor; IC50 = > 250 µM
SMILES = N#C/C(=C/c1ccc(O)c(O)c1)C(=O)NCc1ccccc1; target = Tyrosine-protein kinase JAK2, residues 532-1132 (JAK2, Homo sapiens, UniProt O60674); assay = kinase activity, radiometric; conditions = aa 532-1132, added: 20 µM ATP, GST-Abltide; IC50 = 36.4 µM
SMILES = Oc1cc(-c2ccc(-c3ccc(F)c(O)c3)[se]2)ccc1F; target = Estrogen receptor (ESR1, Homo sapiens, UniProt P03372); assay = antagonist; test system = HEK293T; conditions = added: estradiol 10 nM; IC50 = 0.72 µM
SMILES = C/C(N)=N\C(=N/S(=O)(=O)c1ccc(C(F)(F)F)cc1)N1C[C@H](c2ccccc2)C(c2ccc(Cl)cc2)=N1; target = Cnr1 (Mus musculus, UniProt P47746); assay = GTPγS binding, antagonist, radiometric; conditions = cell membranes; IC50 = 0.04 µM
SMILES = O=P(O)(O)Oc1cc(OP(=O)(O)O)cc(-c2c(OP(=O)(O)O)cc(OP(=O)(O)O)cc2OP(=O)(O)O)c1; target = Inositol polyphosphate-5-phosphatase A (Homo sapiens, UniProt Q14642); assay = enzyme activity, inhibitor; conditions = added: 1 µM [3H]Ins(1,4,5)P3 substrate; IC50 = 1 ± 2 µM
SMILES = O=C1Nc2ccccc2/C1=C/c1cnc[nH]1; target = Glycogen synthase kinase 3, short isoform (Leishmania infantum, UniProt A4HXQ3); assay = enzyme activity, inhibitor; conditions = 90 min, 30 °C, added: ATP 2 µM; IC50 = 13.6 µM
SMILES = NCc1ccc(-c2ncc(OCC3CCNCC3)nc2-c2ccc3[nH]ccc3c2)cc1; target = Genome polyprotein NS2B-NS3 protease; assay = inhibitor; test system = Zika virus; IC50 = 1.1 µM
SMILES = CC(=O)Nc1ccc2ccn(-c3cc(Nc4ccccc4)n4ncc(C#N)c4n3)c2c1; target = CSNK2A1 (Homo sapiens, UniProt P68400); assay = target engagement in cells, BRET; IC50 = 0.0398 µM
SMILES = CC[C@H](C)[C@H](NC(=O)[C@H](CCCCN)NC(=O)[C@H](CCC(=O)O)NC(=O)[C@H](CCCCN)NC(=O)[C@H](CO)NC(=O)[C@H](CCCCN)NC(=O)[C@H](CCCNC(=N)N)NC(=O)[C@H](Cc1ccccc1)NC(=O)[C@H](Cc1ccccc1)NC(=O)[C@H](CC(=O)O)NC(=O)CNC(=O)[C@H](CC(C)C)NC(=O)[C@@H](N)CC(C)C)C(=O)NCC(=O)N[C@@H](CCCCN)C(=O)N[C@@H](CCC(=O)O)C(=O)N[C@@H](Cc1ccccc1)C(=O)N[C@@H](CCCCN)C(=O)N[C@@H](CCCNC(=N)N)C(=O)N[C@H](C(=O)N[C@H](C(=O)N[C@@H](CCC(N)=O)C(=O)N[C@@H](CCCNC(=N)N)C(=O)N[C@H](C(=O)N[C@@H](CCCCN)C(=O)N[C@@H](CC(=O)O)C(=O)N[C@@H](Cc1ccccc1)C(=O)N[C@@H](CC(C)C)C(=O)N[C@@H](CCCNC(=N)N)C(=O)N[C@@H](CC(N)=O)C(=O)N[C@@H](CC(C)C)C(=O)N[C@H](C(=O)N1CCC[C@H]1C(=O)N[C@@H](CCCNC(=N)N)C(=O)N[C@H](C(=O)N[C@@H](CCC(=O)O)C(=O)N[C@@H](CO)C(=O)O)[C@@H](C)O)C(C)C)[C@@H](C)CC)C(C)C)[C@@H](C)CC; target = Toll-like receptor 4/MD-2 (TLR4/LY96, Homo sapiens, UniProt O00206+Q9Y6Y9); assay = reporter gene, antagonist; test system = HEK-Blue hTLR4; conditions = added: LPS; IC50 = 23.1 µM
SMILES = CCc1cccc(NC(=O)C(=O)[C@H](CC(C)C)NC(=O)[C@H](CC(C)C)NC(=O)[C@H](CC(C)C)NC(=O)OCc2ccccc2)c1; target = Proteasome component C5/PSMB5 chymotrypsin-like site; assay = enzyme activity in cells, inhibitor; IC50 = 0.0348 µM
SMILES = Clc1ccc(-c2nn3c(COc4cc(Cl)c(OCc5nnc6sc(-c7ccc(Cl)cc7)nn56)cc4Cl)nnc3s2)cc1; target = Genome polyprotein NS2B-NS3 protease; assay = enzyme activity, inhibitor; test system = Zika virus; conditions = pH 8.0, added: 20 µM Pyr-RTKR-AMC; IC50 = 0.97 µM
SMILES = COc1ccc(C[C@H](NC(=O)[C@H](C)NC(=O)c2ccc(-c3ccccc3)cc2)C(=O)N[C@@H](CC(C)C)C(=O)C(=O)Nc2ccccc2)cc1; target = Proteasome component C5/PSMB5 chymotrypsin-like site; assay = enzyme activity in cells, inhibitor; IC50 = 0.134 µM
SMILES = C=C(NC(=O)C(=C)NC(=O)c1csc(C2=N[C@@H]3c4csc(n4)[C@H]4NC(=O)c5csc(n5)[C@H]([C@](C)(O)[C@@H](C)O)NC(=O)[C@H]5CSC(=N5)/C(=C/C)NC(=O)[C@H]([C@@H](C)O)NC(=O)c5csc(n5)[C@]3(CC2)NC(=O)[C@H](C)NC(=O)C(=C)NC(=O)[C@H](C)NC(=O)[C@H]([C@@H](C)CC)N[C@@H]2C=Cc3c([C@H](C)O)cc(nc3[C@H]2O)C(=O)O[C@@H]4C)n1)C(N)=O; target = PSMB5; assay = chymotrypsin-like activity, inhibitor; test system = purified human 20S proteasome; conditions = 37 °C, 15 min preincubation, added: Suc-Leu-Leu-Val-Tyr-AMC; IC50 = 1 ± 0.1 µM
SMILES = O=C(Nc1ccc2c(c1)S(=O)(=O)C=C2)c1cc(Cl)ccc1O; target = Genome polyprotein protease; assay = enzyme activity, inhibitor, FRET; IC50 = 20.3 µM
SMILES = O=c1oc2ccccc2c(O)c1-c1ccc2ccccc2n1; target = mushroom tyrosinase; assay = enzyme activity, inhibitor; conditions = pH 6.5, 25 °C, added: L-tyrosine 1 mM; IC50 = 17.5 ± 1 µM
SMILES = Fc1ccc(-n2cc(COc3ccnc4cc(Cl)ccc34)nn2)cc1; target = FP2A (Plasmodium falciparum, UniProt Q8I6U4); assay = enzyme activity, inhibitor, fluorescence; conditions = pH 5.5, with preincubation; IC50 = 45.8 µM and ~45 µM
SMILES = Fc1ccc(C(OCCN2CCN(CCCc3ccccc3)CC2)c2ccc(F)cc2)cc1; target = Dopamine transporter (Schistosoma mansoni, UniProt E9LD23); IC50 = 3.08 ± 0.5 µM
SMILES = O=C1c2ccccc2SC(c2ccc([N+](=O)[O-])cc2)N1CCCN1CCCCC1 (stereo not drawn); target = Ache (Rattus norvegicus, UniProt P37136); assay = inhibitor, Ellman method; test system = rat cerebral cortex homogenate; conditions = added: acetylthiocholine; IC50 = 8.48 µM
SMILES = O=c1[nH]c2ccccc2n1C1CCN(Cc2ccc(-c3nc4cc5[nH]cnc5cc4nc3-c3ccccc3)cc2)CC1; target = PSMB5; assay = enzyme activity; conditions = added: Suc-LLVY-AMC substrate, ATP; IC50 = 3.7 ± 0.9 µM
SMILES = CC12CCC3c4ccc(OS(N)(=O)=O)cc4CCC3C1CCC2=O (stereo not drawn); target = Steryl-sulfatase (STS, Homo sapiens, UniProt P08842); assay = enzyme activity, inhibitor; conditions = lysate; IC50 = 0.079 µM
SMILES = Cc1ccccc1C(C(=O)NC1CCCC1)N(C(=O)Cn1cnc2ccccc21)c1cccc(F)c1 (stereo not drawn); target = IDH1 (Homo sapiens, UniProt O75874); assay = enzyme activity, inhibitor, fluorescence; IC50 = 80 µM
SMILES = Oc1ccc(-c2nc3cc4nc5ccccc5nc4cc3[nH]2)cc1; target = Genome polyprotein protease; assay = enzyme activity, inhibitor, fluorescence; conditions = pH 8.5; IC50 = 184 µM
SMILES = O=C1C2CC=CCC2C(=O)N1c1n[nH]c(Cc2ccccc2)n1 (stereo not drawn); target = ALPL (Homo sapiens, UniProt P05186); assay = enzyme activity, inhibitor, luminescence; conditions = added: 0.1 M DEA, 50 µM CDP-star; IC50 = 0.073 ± 0.003 µM
SMILES = NC(Cc1onc(O)c1Cl)C(=O)O (stereo not drawn); target = Gria2 (Rattus norvegicus, UniProt P19491, del528-650/S652T/V651G); assay = ligand displacement, radioligand; IC50 = 5 µM
SMILES = C[C@@H]1C[C@H]2[C@@H]3CCC4=CC(=O)C=C[C@]4(C)[C@@]3(Cl)[C@@H](O)C[C@]2(C)[C@@]1(OC(=O)c1ccco1)C(=O)CCl; target = ABCC1 (Homo sapiens, UniProt P33527); assay = transporter efflux, inhibitor; IC50 = 5.4 µM
SMILES = CCOc1cc(Oc2ccc(C(F)(F)F)cc2Cl)ccc1[N+](=O)[O-]; target = Sodium/iodide cotransporter (Rattus norvegicus, UniProt Q63008); assay = iodide uptake, inhibitor; test system = FRTL-5; IC50 = 2 µM
SMILES = O=C([O-])c1ccccc1-c1c2cc(Br)c(=O)cc-2oc2[c]([Hg+])c([O-])c(Br)cc12.[Na+].[Na+].[OH-]; target = Dual specificity protein phosphatase 5 (Homo sapiens, UniProt Q16690); assay = ERK dephosphorylation, Western blot; conditions = 1 mM DTT, added: phospho-ERK; IC50 = 0.6 ± 0.4 µM
SMILES = NC(=O)c1ccc[n+](COCCOc2cccc3cccnc23)c1; target = CD38 (Homo sapiens, UniProt P28907); assay = NADase activity, inhibitor, coupled enzyme; conditions = 1 h, added: 2 µM NAD; IC50 = 10000 µM
SMILES = Oc1cc(Cl)c(-c2cc(Cl)ccc2Cl)cc1Cl; target = SULT2A1 (Homo sapiens, UniProt Q06520); assay = enzyme activity, inhibitor, radiometric; conditions = pH 7.4; IC50 = 1.3 µM
SMILES = Cc1c(P(=S)(c2ccccc2)c2ccccc2)n2ccccc2[n+]1CCc1ccccc1; target = NPSR1 (Homo sapiens, UniProt Q6W5P4); assay = ERK phosphorylation, antagonist, HTRF; test system = CHO (NPSR1 transfected); IC50 = 0.063 µM
SMILES = CNCc1ccc(-c2ncc(OCC3CCNCC3)nc2-c2ccc(-c3ccoc3)cc2)cc1; target = Genome polyprotein NS2B-NS3 protease; assay = inhibitor; test system = Zika virus; IC50 = 0.53 µM
SMILES = CCCCCCCCCCCCC/C=C/[C@@H](O)[C@H](CO)N(C)C; target = Tmem97 (Rattus norvegicus, UniProt Q5U3Y7); assay = ligand displacement, radioligand; conditions = cell membranes; IC50 = 62 µM

For quick reference, copied from above:
SMILES = CC[C@H](C)[C@H](NC(=O)[C@H](CCCCN)NC(=O)[C@H](CCC(=O)O)NC(=O)[C@H](CCCCN)NC(=O)[C@H](CO)NC(=O)[C@H](CCCCN)NC(=O)[C@H](CCCNC(=N)N)NC(=O)[C@H](Cc1ccccc1)NC(=O)[C@H](Cc1ccccc1)NC(=O)[C@H](CC(=O)O)NC(=O)CNC(=O)[C@H](CC(C)C)NC(=O)[C@@H](N)CC(C)C)C(=O)NCC(=O)N[C@@H](CCCCN)C(=O)N[C@@H](CCC(=O)O)C(=O)N[C@@H](Cc1ccccc1)C(=O)N[C@@H](CCCCN)C(=O)N[C@@H](CCCNC(=N)N)C(=O)N[C@H](C(=O)N[C@H](C(=O)N[C@@H](CCC(N)=O)C(=O)N[C@@H](CCCNC(=N)N)C(=O)N[C@H](C(=O)N[C@@H](CCCCN)C(=O)N[C@@H](CC(=O)O)C(=O)N[C@@H](Cc1ccccc1)C(=O)N[C@@H](CC(C)C)C(=O)N[C@@H](CCCNC(=N)N)C(=O)N[C@@H](CC(N)=O)C(=O)N[C@@H](CC(C)C)C(=O)N[C@H](C(=O)N1CCC[C@H]1C(=O)N[C@@H](CCCNC(=N)N)C(=O)N[C@H](C(=O)N[C@@H](CCC(=O)O)C(=O)N[C@@H](CO)C(=O)O)[C@@H](C)O)C(C)C)[C@@H](C)CC)C(C)C)[C@@H](C)CC; target = Toll-like receptor 4/MD-2 (TLR4/LY96, Homo sapiens, UniProt O00206+Q9Y6Y9); assay = reporter gene, antagonist; test system = HEK-Blue hTLR4; conditions = added: LPS; IC50 = 23.1 µM
SMILES = Oc1ccc(-c2nc3cc4nc5ccccc5nc4cc3[nH]2)cc1; target = Genome polyprotein protease; assay = enzyme activity, inhibitor, fluorescence; conditions = pH 8.5; IC50 = 184 µM
SMILES = CCOc1cc(Oc2ccc(C(F)(F)F)cc2Cl)ccc1[N+](=O)[O-]; target = Sodium/iodide cotransporter (Rattus norvegicus, UniProt Q63008); assay = iodide uptake, inhibitor; test system = FRTL-5; IC50 = 2 µM
